Results from different studies.
Every numbered part comes from another study and shows a few of its results, in no order.

Series 1 — mode: inhibitor; concentration: 20 µM; endpoint: inhibition
Target: Replicase polyprotein 1ab, nsp13 helicase (rep, Severe acute respiratory syndrome coronavirus 2, UniProt P0DTD1)
COc1ccc(/C=C\c2cc(OC)c(OC)c(OC)c2)cc1OP(=O)(O)O: 1.56%
CCOC(=O)c1c(/C(C#N)=C\N)c2ccc(Cl)c(Cl)c2n1C: 5.51%
COCCOc1ccc2c(c1)ncn2-c1ccc2cccc(N3CCC(N)CC3)c2n1: 6.95%
CC1(C)C(=O)N(CCN2CCC(C(=O)c3ccc(F)cc3)CC2)c2ccccc21: 8.46%
CC(=O)OCC(=O)NCCCOc1cccc(CN2CCCCC2)c1: 7.44%
O=C1c2ccccc2C(=O)C1c1ccccc1: 11.3%
Nc1nc(N)nc(-c2cc(Cl)ccc2Cl)n1: 4.98%
O=C(NC1CCOCC1)c1ccc(-c2cc(-c3c[nH]nc3-c3ccccn3)ccn2)cc1: -6.03%
O[C@@](Cc1ncc(CC2(C(F)(F)F)CC2)[nH]1)(c1ccc(-n2cccn2)cc1)C(F)(F)F: 6.39%
CCC[S+]([O-])c1ccc2[nH]c(NC(=O)OC)nc2c1 (centres unmarked): 3.51%
O=C(c1cc(S(=O)(=O)Nc2ccccc2F)c(F)cc1Cl)N1CCN2CCC[C@@H]2C1: -0.06%
COc1cc2c(NC3CCN(C4CCCCC4)CC3)nc(N3CCCN(C(C)C)CC3)nc2cc1OCCCN1CCCCC1: 4.54%
CNC(=O)c1c(C)oc2cc(Oc3ncnc4cc(OC)c(OC)cc34)ccc12: 1.57%
C#Cc1cccc(Nc2ncnc3cc(OC)c(OCCCCCCC(=O)NO)cc23)c1: 5.44%
COc1ccc(CN2CCNCC2)c(OC)c1OC: 3.54%
O=S(=O)(c1ccccc1)c1cnc2c(N3CCNCC3)cccc2c1: -1.51%
CC(C)(C)n1nc(-c2cccc3ccccc23)c2c(N)ncnc21: 4.78%
Cc1[nH]c(=O)c(C#N)cc1-c1ccc2nccn2c1: -3.22%
CO[C@H]1/C=C/O[C@@]2(C)Oc3c(C)c(O)c4c(O)c(c(/C=N/N5CCN(C6CCCC6)CC5)c(O)c4c3C2=O)NC(=O)/C(C)=C\C=C\[C@H](C)[C@H](O)[C@@H](C)[C@@H](O)[C@@H](C)[C@H](OC(C)=O)[C@@H]1C: 8.04%
C[C@H]1CO[C@@H]2Cn3cc(C(=O)NCc4ccc(F)cc4F)c(=O)c(O)c3C(=O)N12: 4.38%
NS(=O)(=O)c1cc(C(=O)O)cc(N2CCCC2)c1Oc1ccccc1: 6.19%
C=CC(=O)Nc1cccc(Nc2nc(Nc3ccc(OCCOC)cc3)ncc2F)c1: 10.7%
Cc1cccc(Nc2ccccc2C(=O)O)c1C: 4.99%
O=C(O)CCN(O)C(=O)CCCCCCCCC1CC1: 2.44%
CCCCC/C=C\C=C\CCCCCCCCC(=O)O: 7.42%

Series 2 — method: protein-binding microarray; molecule type: double-stranded DNA, one strand shown; matrix: in vitro; concentration: not given; reading: higher = stronger binding; endpoint: E-score
Target: Transcription factor SOX-2, HMG box (SOX2, Homo sapiens, UniProt P48431, residues 19-118)
Chain of UniProt P48431 (19-118, looked up): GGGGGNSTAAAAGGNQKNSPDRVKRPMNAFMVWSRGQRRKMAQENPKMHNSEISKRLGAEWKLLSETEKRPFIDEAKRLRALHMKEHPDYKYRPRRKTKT
Notes: k-mer, scored over probes, only values ≥0.25
ATTCAAC: 0.359
ATTGACG: 0.366
ACAATAT: 0.452
CAATGGG: 0.337
AATCAAT: 0.381
AATGTAT: 0.327

Series 3 — method: protein binding microarray; molecule type: double-stranded DNA, one strand shown; matrix: in vitro; concentration: not given; reference: not given; reading: higher = stronger binding; endpoint: E-score
Target: Histone acetyltransferase KAT6A, winged helix 2, GST fusion (KAT6A, Homo sapiens, UniProt Q92794, residues 85-181)
Notes: 8-mer, flanks averaged, mean of 2 arrays, mostly near background
Construct (chain): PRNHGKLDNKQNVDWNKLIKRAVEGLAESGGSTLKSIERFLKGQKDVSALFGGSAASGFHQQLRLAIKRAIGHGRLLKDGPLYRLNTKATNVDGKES
CGCGCGAG: 0.198
CTAAGGGA: 0.0209
AGCTATCG: 0.0144
ATGCCTAA: -0.00741
GATGGGAC: -0.339
ATTACTCA: 0.0476
ACACCCAC: 0.0786
GGTCCACC: 0.0597

Series 4 — observed: enzyme activity; mode: inhibitor; concentration: 20 µM; notes: hit confirmation; endpoint: inhibition
Target: Replicase polyprotein 1ab, main protease (rep, Severe acute respiratory syndrome coronavirus 2, UniProt P0DTD1)
Sc1nnc(Nc2ccccc2)s1: 110%
FC(F)(F)c1cc(NC(=S)Nc2ccc(Br)cc2-c2nnn[nH]2)cc(C(F)(F)F)c1: 55.4%
CNc1nc(Nc2cn(C(C)(C)C#N)nc2C)ncc1C(F)(F)F: 70.9%

Series 5 — method: competition protein-binding microarray; molecule type: double-stranded DNA, one strand shown; matrix: in vitro; concentration: 2 µM; together with: Pho4 competitor, 0.05 µM; reading: higher = stronger binding; endpoint: fluorescence intensity
Target: Centromere-binding protein 1, full length, His-tagged (CBF1, Saccharomyces cerevisiae, UniProt P17106, residues 1-351)
Chain of UniProt P17106 (whole entry, looked up): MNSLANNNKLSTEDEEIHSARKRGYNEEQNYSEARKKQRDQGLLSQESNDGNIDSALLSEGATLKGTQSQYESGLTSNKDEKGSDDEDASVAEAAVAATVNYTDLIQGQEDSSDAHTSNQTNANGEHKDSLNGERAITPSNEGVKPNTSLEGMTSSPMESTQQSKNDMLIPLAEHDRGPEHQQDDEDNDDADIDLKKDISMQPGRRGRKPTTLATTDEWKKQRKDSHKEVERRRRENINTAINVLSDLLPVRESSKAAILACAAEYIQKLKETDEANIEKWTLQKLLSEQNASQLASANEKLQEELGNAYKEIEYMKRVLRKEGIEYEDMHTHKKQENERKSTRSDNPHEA
Notes: whole 60-bp probe, lowest competitor level
TATTGAAAGTTTGCGAACGTGAAGTAAAACTGCAAAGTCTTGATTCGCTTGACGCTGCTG: 90 a.u.
GCCGCATTGCACCTTGTCGTGATGGATTCTAAGTACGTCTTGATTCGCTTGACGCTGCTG: 84.1 a.u.
CATACCCAACCTTGCAGAGTGGGTGAAGATATTTGTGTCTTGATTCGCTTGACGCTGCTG: 58.3 a.u.
CTTTCCCGATCTTGGACAGTGGGTGTAGCACATTTGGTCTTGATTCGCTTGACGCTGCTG: 66.9 a.u.
CGGGGTTAAGTTTTTCACGTGCCATGCTTGCAGCAGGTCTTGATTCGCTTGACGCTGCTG: 1010 a.u.
AGCTGGCAGAACCTCCATGTGCTCCAGGTCTCTGATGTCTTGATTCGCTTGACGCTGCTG: 69.7 a.u.
CGGGGTTAAGTTTGAGCTGTGGGTGGCTTGCAGCAGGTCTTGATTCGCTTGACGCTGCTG: 67.3 a.u.
GTAAGTCAAAATCCGCGCGTGACTCGTAAAGCGTTAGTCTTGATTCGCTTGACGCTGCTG: 623 a.u.

Series 6 — cell line: HEK-293T; observed: pseudovirus infection; method: FDA-approved drug library screen; organism: VSV pseudotyped with SARS-CoV-2 spike; concentration: 10 µM; time: 16 h; reference: vehicle-treated; endpoint: GFP-positive cells
CC[C@@]1(O)C(=O)OCc2c1cc1n(c2=O)Cc2cc3c(CN(C)C)c(O)ccc3nc2-1: 79.6%
O=C(O)c1ccccc1O: 94.8%
C=CC[N+]1([C@H]2C[C@H]3[C@@H]4CC[C@H]5C[C@H](O)[C@@H](N6CCOCC6)C[C@]5(C)[C@H]4CC[C@]3(C)[C@H]2OC(C)=O)CCCC1: 86.4%

Some of these lines once more (series 1):
CNC(=O)c1c(C)oc2cc(Oc3ncnc4cc(OC)c(OC)cc34)ccc12: 1.57%
Nc1nc(N)nc(-c2cc(Cl)ccc2Cl)n1: 4.98%
CO[C@H]1/C=C/O[C@@]2(C)Oc3c(C)c(O)c4c(O)c(c(/C=N/N5CCN(C6CCCC6)CC5)c(O)c4c3C2=O)NC(=O)/C(C)=C\C=C\[C@H](C)[C@H](O)[C@@H](C)[C@@H](O)[C@@H](C)[C@H](OC(C)=O)[C@@H]1C: 8.04%
NS(=O)(=O)c1cc(C(=O)O)cc(N2CCCC2)c1Oc1ccccc1: 6.19%
C=CC(=O)Nc1cccc(Nc2nc(Nc3ccc(OCCOC)cc3)ncc2F)c1: 10.7%
COc1cc2c(NC3CCN(C4CCCCC4)CC3)nc(N3CCCN(C(C)C)CC3)nc2cc1OCCCN1CCCCC1: 4.54%
